Results collected from several papers.
Parts stem from different laboratories: compare values within a part only. “And” joins repeats or separate records; there may be more than shown.
Sequence of UniProt P22455 (whole entry, looked up): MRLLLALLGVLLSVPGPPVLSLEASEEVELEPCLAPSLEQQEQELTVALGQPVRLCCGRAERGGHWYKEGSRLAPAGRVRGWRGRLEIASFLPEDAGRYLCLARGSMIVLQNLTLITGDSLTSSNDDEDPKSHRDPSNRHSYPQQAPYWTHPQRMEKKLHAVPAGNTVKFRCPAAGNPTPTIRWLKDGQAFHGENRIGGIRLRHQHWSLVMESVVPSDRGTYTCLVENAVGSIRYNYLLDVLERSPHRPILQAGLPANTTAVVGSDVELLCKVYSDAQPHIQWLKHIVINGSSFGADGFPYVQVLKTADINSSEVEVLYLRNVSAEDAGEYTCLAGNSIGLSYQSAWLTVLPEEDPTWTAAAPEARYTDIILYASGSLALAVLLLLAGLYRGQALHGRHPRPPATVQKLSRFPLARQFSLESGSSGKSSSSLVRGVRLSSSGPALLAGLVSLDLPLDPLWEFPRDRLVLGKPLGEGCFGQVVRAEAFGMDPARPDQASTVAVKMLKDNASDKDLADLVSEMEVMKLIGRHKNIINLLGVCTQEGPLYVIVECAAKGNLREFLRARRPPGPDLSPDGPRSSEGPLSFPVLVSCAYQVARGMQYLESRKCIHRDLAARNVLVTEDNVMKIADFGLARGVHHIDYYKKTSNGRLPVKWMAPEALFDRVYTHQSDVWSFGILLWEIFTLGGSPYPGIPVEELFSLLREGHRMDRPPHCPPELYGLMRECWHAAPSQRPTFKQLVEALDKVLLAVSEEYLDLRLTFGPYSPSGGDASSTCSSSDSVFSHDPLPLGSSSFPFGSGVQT
Sequence of UniProt Q9UQB9 (whole entry, looked up): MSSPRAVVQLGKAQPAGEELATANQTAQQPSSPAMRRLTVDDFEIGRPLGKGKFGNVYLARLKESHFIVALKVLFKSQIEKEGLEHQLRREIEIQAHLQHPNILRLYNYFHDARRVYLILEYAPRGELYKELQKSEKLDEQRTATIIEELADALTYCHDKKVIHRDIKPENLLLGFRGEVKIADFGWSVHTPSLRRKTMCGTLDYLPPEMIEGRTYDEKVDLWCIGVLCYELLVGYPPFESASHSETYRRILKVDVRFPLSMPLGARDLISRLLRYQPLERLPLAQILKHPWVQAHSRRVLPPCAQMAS
Sequence of UniProt Q02156 (whole entry, looked up): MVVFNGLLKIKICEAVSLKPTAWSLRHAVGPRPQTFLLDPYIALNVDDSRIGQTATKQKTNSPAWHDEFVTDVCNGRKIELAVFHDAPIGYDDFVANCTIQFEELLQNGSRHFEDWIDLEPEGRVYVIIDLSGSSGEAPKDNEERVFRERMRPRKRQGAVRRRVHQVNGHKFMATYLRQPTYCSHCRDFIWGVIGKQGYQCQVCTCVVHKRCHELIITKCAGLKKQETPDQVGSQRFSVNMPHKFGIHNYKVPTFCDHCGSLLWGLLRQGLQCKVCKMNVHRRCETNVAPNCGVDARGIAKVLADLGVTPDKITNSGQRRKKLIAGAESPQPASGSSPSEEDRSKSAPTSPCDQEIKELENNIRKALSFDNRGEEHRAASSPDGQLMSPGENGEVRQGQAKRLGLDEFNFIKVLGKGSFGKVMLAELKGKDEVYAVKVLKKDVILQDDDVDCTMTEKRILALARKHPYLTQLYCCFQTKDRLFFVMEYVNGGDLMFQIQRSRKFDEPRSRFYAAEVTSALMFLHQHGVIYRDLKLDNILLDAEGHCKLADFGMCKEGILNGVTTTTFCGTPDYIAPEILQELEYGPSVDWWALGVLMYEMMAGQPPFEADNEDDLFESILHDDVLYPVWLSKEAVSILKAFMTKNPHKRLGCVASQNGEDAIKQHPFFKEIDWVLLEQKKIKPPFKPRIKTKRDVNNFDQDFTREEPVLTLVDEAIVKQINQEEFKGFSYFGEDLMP
Sequence of UniProt Q15375 (whole entry, looked up): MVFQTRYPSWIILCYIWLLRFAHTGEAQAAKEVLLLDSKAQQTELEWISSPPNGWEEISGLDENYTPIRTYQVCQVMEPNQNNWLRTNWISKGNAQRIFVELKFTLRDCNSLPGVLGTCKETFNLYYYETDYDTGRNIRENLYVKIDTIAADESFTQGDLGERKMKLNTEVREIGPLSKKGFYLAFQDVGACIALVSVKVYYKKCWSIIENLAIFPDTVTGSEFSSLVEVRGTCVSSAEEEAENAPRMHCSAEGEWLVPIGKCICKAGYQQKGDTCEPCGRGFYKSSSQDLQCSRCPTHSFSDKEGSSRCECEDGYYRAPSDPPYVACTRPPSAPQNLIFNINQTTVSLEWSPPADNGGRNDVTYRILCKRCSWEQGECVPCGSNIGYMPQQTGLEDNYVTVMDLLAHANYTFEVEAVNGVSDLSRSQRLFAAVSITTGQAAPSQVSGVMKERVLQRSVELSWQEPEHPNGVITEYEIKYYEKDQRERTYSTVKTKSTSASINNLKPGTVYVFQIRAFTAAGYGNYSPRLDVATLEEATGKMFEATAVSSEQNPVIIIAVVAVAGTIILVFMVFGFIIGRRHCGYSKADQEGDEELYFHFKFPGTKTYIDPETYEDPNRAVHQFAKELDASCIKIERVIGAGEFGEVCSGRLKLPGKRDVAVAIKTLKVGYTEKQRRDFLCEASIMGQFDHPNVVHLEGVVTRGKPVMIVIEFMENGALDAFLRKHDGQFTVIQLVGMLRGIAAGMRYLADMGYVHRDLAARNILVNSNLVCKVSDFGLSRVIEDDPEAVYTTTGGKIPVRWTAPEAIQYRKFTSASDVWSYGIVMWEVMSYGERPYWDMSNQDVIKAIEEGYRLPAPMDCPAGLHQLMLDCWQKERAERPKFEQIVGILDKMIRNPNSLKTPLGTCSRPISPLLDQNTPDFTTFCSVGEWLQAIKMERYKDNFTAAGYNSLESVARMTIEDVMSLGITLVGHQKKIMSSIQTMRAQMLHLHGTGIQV
Sequence of UniProt Q13177 (whole entry, looked up): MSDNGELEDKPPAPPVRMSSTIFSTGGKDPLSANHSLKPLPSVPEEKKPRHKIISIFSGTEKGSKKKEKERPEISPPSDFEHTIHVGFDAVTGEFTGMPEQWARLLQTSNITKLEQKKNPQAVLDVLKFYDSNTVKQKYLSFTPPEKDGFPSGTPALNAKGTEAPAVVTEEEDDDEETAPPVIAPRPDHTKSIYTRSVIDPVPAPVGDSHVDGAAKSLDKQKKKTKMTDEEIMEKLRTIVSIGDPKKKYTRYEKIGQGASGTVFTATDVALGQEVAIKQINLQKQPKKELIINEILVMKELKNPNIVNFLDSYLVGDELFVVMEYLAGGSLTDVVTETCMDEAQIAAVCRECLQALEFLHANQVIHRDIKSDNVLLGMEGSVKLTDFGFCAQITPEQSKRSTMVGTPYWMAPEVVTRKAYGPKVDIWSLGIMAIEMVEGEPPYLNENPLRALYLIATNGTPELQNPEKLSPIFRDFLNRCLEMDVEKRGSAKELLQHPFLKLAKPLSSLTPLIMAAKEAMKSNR

Sample 1
Structure (SMILES): CC(C)C[C@@H]1NC(=O)[C@@H](N(C)C(=O)[C@H](CC2CCC2)NC(=O)[C@@H]2C[C@@H](F)CN2C(=O)C2(C(F)(F)F)CC(F)(F)C2)CCCCNC(=O)C2(CC2)NC(=O)[C@H](Cc2cc(Cl)ccc2Cl)N(C)C1=O
Relative to: DMSO
The cell count was 0.816 and 0.711 (NCI-H446; Vi-Cell counting; 20 nM, 3 days, with: Mps1 inhibitor 3 nM).
NCI-H82; Vi-Cell counting; 2 µM, 6 days — cell count: 0.39 and 0.591 and 0.4.
The cell count was 0.895 and 1.02 (NCI-H446; Vi-Cell counting; 6 nM, 3 days, with: Mps1 inhibitor 3 nM).
MDA-MB-231, doxycycline-inducible E2F1; 200 nM, 6 days, no doxycycline — cell count: 0.586 and 0.384 and 0.524.
For NCI-H1299; Vi-Cell counting; 2 µM, 6 days: cell count read 0.564 and 0.3 and 0.583.
It gave 0.08 and 0.15 for cell count (NCI-H82; Vi-Cell counting; 6 µM, 6 days).

Sample 2
Compound: CN(C)S(=O)(=O)c1ccc2c(c1)/C(=C/c1cc3c([nH]1)CCCC3)C(=O)N2
Read-out: enzyme activity
Action: inhibitor
Tested at: 0.5 µM
Relative to: control
It gave 10.2% for remaining activity (Receptor-type tyrosine-protein kinase FLT3 (FLT3, Homo sapiens, UniProt P36888)).
Ephrin type-A receptor 7 (EPHA7, Homo sapiens, UniProt Q15375) — remaining activity: 91.1%.
For Fibroblast growth factor receptor 4 (FGFR4, Homo sapiens, UniProt P22455): remaining activity read 92.9%.
It gave 33.8% for remaining activity (Aurora kinase C (AURKC, Homo sapiens, UniProt Q9UQB9)).
It gave 94.6% for remaining activity (Protein kinase C epsilon type (PRKCE, Homo sapiens, UniProt Q02156)).
It gave 92.5% for remaining activity (Serine/threonine-protein kinase PAK 2 (PAK2, Homo sapiens, UniProt Q13177)).
It gave 86.8% for remaining activity (Protein kinase C gamma type (PRKCG, Homo sapiens, UniProt P05129)).
For Myosin light chain kinase, smooth muscle (MYLK, Homo sapiens, UniProt Q15746): remaining activity read 97.2%.

Sample 3
Cell line: HH
Tested at: 2 µM
Time: 48 h
Relative to: untreated
With `Cn1ncc(Cl)c1-c1cc(C(=O)N[C@H](CN)Cc2ccc(F)c(F)c2)oc1Cl` the viability was 52.5%.
`COc1ccc(-c2cc3c(C)nc(N)nc3n([C@H]3CC[C@H](OCCO)CC3)c2=O)cn1` gave a viability of 43.8%.
With `N#C/C(=C(/N)Sc1ccc(N)cc1)c1ccccc1C(F)(F)F` the viability was 91.2%.
With `Cc1ccc(NC(=O)c2cccc(N(C)C)c2)cc1NC(=O)c1ccc(O)cc1` the viability was 77.6%.
`COc1cc2c(c(OC)c1OC)-c1c(cc3c(c1OC)OCO3)C[C@@H](C)[C@@H](C)C2` gave a viability of 97%.
For `COc1ccc(S(=O)(=O)N(CCO)c2ccccc2CN(C)C/C=C/c2ccc(Cl)cc2)cc1`, the viability was 69.6%.
`Cn1cc(/C=C2\C(=O)Nc3cccnc32)c2ccccc21` gave a viability of 116%.
For `COc1ccc(-c2ccc3ncc4c(c3c2)n(-c2ccc(N3CCNCC3)c(C(F)(F)F)c2)c(=O)n4C)cn1`, the viability was 6.44%.

Sample 4
Cell line: normal-adjacent epithelium patient-derived organoids sample F
Method: CellTiter-Glo
Tested at: 1 µM
Relative to: DMSO
With `CN1CCN(Cc2cc(NC(=O)c3ccc4c(c3)CN(c3ccccc3)CC4)cc(C(F)(F)F)c2)CC1` the viability was 84.5% and 70.5%.
For `CCCCNc1ncc(-c2ccc(CN3CCOCC3)cn2)c(NC2CCC(O)CC2)n1` (stereo not drawn), the viability was 145% and 108%.
`CC(=O)NCC(=O)N1[C@@H]2CC[C@H]1c1ccc(Nc3ncc(C(F)(F)F)c(NC4CCC4)n3)cc12` has a viability of 9% and 7.7%.
`CN(C)C(=O)Cn1cc(-c2ccc(-c3nnc4ccccn34)cc2)cn1` has a viability of 209% and 148%.
`Cc1ncc(-c2cc(Cl)ccc2F)cc1-n1c(=O)n(CC(N)=O)c2ccccc21` has a viability of 164% and 152%.
`CCNC(=O)c1cc2c(N3CCOC[C@H]3C)ccnc2n1C` gave a viability of 104% and 98.1%.
`O=C(Nc1cccnn1)N1CC(CC=Cc2cncc(Oc3ccc(C(F)(F)F)cn3)n2)C1` has a viability of 115% and 101%.
`Cc1cc2c(-c3ccco3)cnc(N[C@@H]3CCN(C)C[C@H]3C(=O)NC3CCCCC3)c2[nH]c1=O` gave a viability of 68.5%.
